Experimental data collected from several papers.
Protocols differ between the studies behind these lines. Square brackets hold non-standard residues; d marks the D form. Ends that are not written are not given here.
B1: UGT1A9 (Homo sapiens, UniProt O60656); chain GKLLVVPMDGSHWFTMRSVVEKLILRGHEVVVVMPEVSWQLGRSLNCTVKTYSTSYTLEDLDREFKAFAHAQWKAQVRSIYSLLMGSYNDIFDLFFSNCRSLFKDKKLVEYLKESSFDAVFLDPFDNCGLIVAKYFSLPSVVFARGILCHYLEEGAQCPAPLSYVPRILLGFSDAMTFKERVRNHIMHLEEHLLCHRFFKNALEIASEILQTPVTEYDLYSHTSIWLLRTDFVLDYPKPVMPNMIFIGGINCHQGKPLPMEFEAYINASGEHGIVVFSLGSMVSEIPEKKAMAIADALGKIPQTVLWRYTGTRPSNLANNTILVKWLPQNDLLGHPMTRAFITHAGSHGVYESICNGVPMVMMPLFGDQMDNAKRMETKGAGVTLNVLEMTSEDLENALKAVINDKSYKENIMRLSSLHKDRPVEPLDLAVFWVEFVMRHKGAPHLRPAAHDLTWYQYHSLDVIGFLLAVVLTVAFITFKCCAYGYRKCLGKKGRVKKAHKSKTH
B2: ramucirumab; V domains shown; VH EVQLVQSGGGLVKPGGSLRLSCAASGFTFSSYSMNWVRQAPGKGLEWVSSISSSSSYIYYADSVKGRFTISRDNAKNSLYLQMNSLRAEDTAVYYCARVTDAFDIWGQGTMVTVSS; VL DIQMTQSPSSVSASIGDRVTITCRASQGIDNWLGWYQQKPGKAPKLLIYDASNLDTGVPSRFSGSGSGTYFTLTISSLQAEDFAVYFCQQAKAFPPTFGGGTKVDIK
B3: JUN (Homo sapiens, UniProt P05412); sequence looked up; chain MTAKMETTFYDDALNASFLPSESGPYGYSNPKILKQSMTLNLADPVGSLKPHLRAKNSDLLTSPDVGLLKLASPELERLIIQSSNGHITTTPTPTQFLCPKNVTDEQEGFAEGFVRALAELHSQNTLPSVTSAAQPVNGAGMVAPAVASVAGGSGSGGFSASLHSEPPVYANLSNFNPGALSSGGGAPSYGAAGLAFPAQPQQQQQPPHHLPQQMPVQHPRLQALKEEPQTVPEMPGETPPLSPIDMESQERIKAERKRMRNRIAASKCRKRKLERIARLEEKVKTLKAQNSELASTANMLREQVAQLKQKVMNHVNSGCQLMLTQQLQTF
B4: AHSP (UniProt Q9NZD4); chain GSMALLKANKDLISAGLKEFSVLLNQQVFNDPLVSEEDMVTVVEDWMNFYINYYRQQVTGEPQERDKALQELRQELNTLANPFLAKYRDFLKSHELPSHPPPSS

| Molecule | target or system | assay | test system | conditions | scale | measurement | result |
| --- | --- | --- | --- | --- | --- | --- | --- |
| SFRNGVGTGMKKTSFQRAKS (Neuropeptide S mature 1-20 (Homo sapiens, UniProt P0C0P6); sequence looked up) | NPSR1 D105A (Homo sapiens, UniProt Q6W5P4) | intracellular Ca2+ mobilisation, agonist, FLIPR | peptide | D105A mutant | – | EC50 | 583 nM |
| B1 (UGT1A9) | COc1cc(OC)c2c(=O)c(O)c(-c3ccccc3)oc2c1 | steady-state kinetics | – | pH 7.4, 37 °C | – | Km | 0.13 µM |
| PEAK1 (Homo sapiens, UniProt Q9H792) | TNS3 1172-1282 Y1173F/Y1206F/Y1256F (Homo sapiens, UniProt Q68CZ2) | pull-down | COS-7, lysate | – | baseline: SH2-WT, higher = less binding | relative binding reduction | > 50% |
| H[dS]QGTFTSDYSKYLDECRAQDFVCWLMNTKRNRNNIA-NH2 (oxyntomodulin analog S16E/R17C/Q24C, D-Ser2, C-terminal amide; cysteine pairing not given here; D-Ser2, C-terminal amide) | GCGR (Homo sapiens, UniProt P47871) | CRE luciferase reporter, agonist | peptide, HEK293 | – | – | EC50 | 20 nM |
| B2 (ramucirumab) | KDR (Homo sapiens, UniProt P35968) | HUVEC proliferation, neutraliser | antibody, HUVEC | together with: VEGF-A+VEGF-C+VEGF-D | – | neutralisation EC50 | 1.99 µg/mL |
| B3 (JUN) | PAGE4 A18C, Alexa 555/647 on C18, C63 (Homo sapiens, UniProt O60829) | fluorescence | – | together with: c-Jun | baseline: before adding c-Jun, higher = brighter | quantum yield ratio | 1.27 fold |
| EPB41 fragment (Homo sapiens) | SLC9A1 residues 506-575 (Rattus norvegicus) | resonant mirror | – | kinetic analysis | – | kon | 43000 M⁻¹ s⁻¹ |
| cyp102A1 flavin reductase domain (Bacillus megaterium) | CYP3A4 del3-12 (Homo sapiens, UniProt P08684) | BMR-dependent reduction | nanodiscs | no substrate | – | slow phase rate constant | 0.0024 s⁻¹ |
| B4 (AHSP) | HBA1 apo, mature (Homo sapiens) | CD | – | – | – | denaturation midpoint temperature | 53.7 °C |
| FKBP1A (Homo sapiens, UniProt P62942) | RYR1 (Oryctolagus cuniculus, UniProt P11716) | planar lipid bilayer recording | planar lipid bilayers | single channel, nonphosphorylated | – | closed time | 36.7 ms |
| FLNA (Homo sapiens, UniProt P21333) | ACTA1 F-actin (Oryctolagus cuniculus, UniProt P68135) | co-sedimentation | – | two-site fit, apparent | – | actin per FLNa subunit, high avidity site | 46 mol/mol |
| ARTKWTARKS (Histone H3.1 2-11 Q5W (Homo sapiens, UniProt P68431); sequence looked up) | KDM5A 287-347 (Homo sapiens, UniProt P29375) | competition with labeled peptide, fluorescence polarisation | peptide | together with: H3 peptide | – | Ki | 1050 nM |

A few entries again:
| Molecule | target or system | assay | test system | conditions | scale | measurement | result |
| --- | --- | --- | --- | --- | --- | --- | --- |
| ARTKWTARKS (Histone H3.1 2-11 Q5W (Homo sapiens, UniProt P68431); sequence looked up) | KDM5A 287-347 (Homo sapiens, UniProt P29375) | competition with labeled peptide, fluorescence polarisation | peptide | together with: H3 peptide | – | Ki | 1050 nM |
| cyp102A1 flavin reductase domain (Bacillus megaterium) | CYP3A4 del3-12 (Homo sapiens, UniProt P08684) | BMR-dependent reduction | nanodiscs | no substrate | – | slow phase rate constant | 0.0024 s⁻¹ |
